Measurements collected from several papers.
Parts stem from different laboratories: compare values within a part only. Positions count from the first letter of the parent shown.

Sample 1
Target: Histone acetyltransferase KAT6A, winged helix 2, GST fusion (KAT6A, Homo sapiens, UniProt Q92794, residues 85-181)
Technique: protein binding microarray
Molecule type: double-stranded DNA, one strand shown
Sample: in vitro
Tested at: not given
Notes: 8-mer, flanks averaged, mean of 2 arrays, mostly near background
Baseline: not given
Reading: higher = stronger binding
Measurement: E-score
Construct (chain): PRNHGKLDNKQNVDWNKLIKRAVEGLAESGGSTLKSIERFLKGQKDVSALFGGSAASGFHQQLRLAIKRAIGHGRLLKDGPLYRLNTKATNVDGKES
Strand = CACCTGTC; value = -0.0797
Strand = GCCGGGGA; value = 0.0397
Strand = GGCTACCA; value = 0.118
Strand = CCACGCAG; value = 0.0462
Strand = AAACCCCG; value = 0.0199
Strand = GATCCCCC; value = -0.19
Strand = CTGGGAGA; value = -0.0418
Strand = CAGGTGTA; value = -0.118
Strand = CGAACGTC; value = -0.066
Strand = GACATCGA; value = 0.0302
Strand = TCTGCGCA; value = 0.0247
Strand = GATGAGCA; value = 0.152
Strand = GCACTCAA; value = -0.0811
Strand = CAACAACG; value = -0.0462
Strand = ATTTGAAC; value = -0.0304
Strand = CTGAAGAC; value = -0.119
Strand = TCCACCGA; value = -0.0149
Strand = CTAAAGGA; value = 0.117
Strand = AGCATCCT; value = -0.0725
Strand = TACAAGAA; value = 0.0185
Strand = GAACACCC; value = 0.061
Strand = AGCACCAG; value = 0.074
Strand = CGCAGACC; value = 0.0173
Strand = ACTGCTCA; value = 0.165
Strand = ACTGTAGA; value = -0.0583

Sample 2
Target: ABI1, truncated, D143A, DHFR fusion (Arabidopsis thaliana)
Technique: DHFR PCA, deep sequencing
Sample: yeast
Notes: methotrexate growth selection, single substitutions
Together with: (+)-ABA 0.032 µM
Baseline: wild-type fitted maximum
Reading: higher = stronger binding
Measurement: relative binding score
Starting sequence: PYL1, truncated, DHFR fusion (Arabidopsis thaliana); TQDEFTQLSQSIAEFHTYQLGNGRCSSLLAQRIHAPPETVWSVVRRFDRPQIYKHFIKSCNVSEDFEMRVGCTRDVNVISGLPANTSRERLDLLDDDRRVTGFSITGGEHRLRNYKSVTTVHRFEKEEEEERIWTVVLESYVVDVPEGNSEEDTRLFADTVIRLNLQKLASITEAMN
Change = D48R; value = -1.19%
Change = A84M; value = 54.5%
Change = R111I; value = 7.06%
Change = P36Q; value = 7.03%
Change = T119P; value = -2.05%
Change = N77E; value = 63.1%
Change = R45M; value = -0.656%
Change = N114P; value = -6.24%
Change = R98A; value = 5.68%
Change = K116N; value = -1.12%
Change = V136W; value = -3.55%
Change = D65N; value = 36.3%
Change = I172A; value = -6.89%
Change = L112P; value = 5.7%
Change = S104V; value = -4.09%
Change = F124H; value = -2.26%
Change = E14Q; value = 10.3%
Change = P83C; value = 10.7%

Sample 3
Target: Prothrombin, mature alpha-thrombin (F2, Homo sapiens, UniProt P00734)
Technique: aptamer microarray, sandwich
Molecule type: DNA with 2'F-ANA
Sample: in vitro
Tested at: 200 nM
Notes: whole 15-mer aptamer, many near background
Together with: Cy3 exosite-II aptamer, 400 nM
Reading: higher = stronger binding
Measurement: mean fluorescence intensity
Strand: GGTTGGTGTGGTTGG
Modification = 2'F-ANA at 2 4 5 6 8 9 14; value = 74 a.u.
Modification = 2'F-ANA at 4 5 6 7 8 10 11 12 13; value = 48.7 a.u.
Modification = 2'F-ANA at 2 4 7 9 10 11 14; value = 77.4 a.u.
Modification = 2'F-ANA at 1 3 4 5 7 9 11 12 13 14; value = 49.9 a.u.
Modification = 2'F-ANA at 2 4 6 7 8 9 10 13 14 15; value = 101 a.u.
Modification = 2'F-ANA at 1 2 3 4 6 7 11 13; value = 134 a.u.
Modification = 2'F-ANA at 6 7 8 9 10 11 12 14 15; value = 107 a.u.
Modification = 2'F-ANA at 2 4 6 9 11 12 13; value = 282 a.u.
Modification = 2'F-ANA at 3 5 7 8 9 10 11 12 14; value = 61.5 a.u.
Modification = 2'F-ANA at 3 4 5 6 8 10 12 13 14; value = 84.5 a.u.
Modification = 2'F-ANA at 1 8 9 15; value = 253 a.u.
Modification = 2'F-ANA at 1 3 4 7 10 13; value = 57.6 a.u.
Modification = 2'F-ANA at 3 4 12 13 14; value = 405 a.u.
Modification = 2'F-ANA at 1 2 4 5 8 9 11 12 13 14; value = 291 a.u.
Modification = 2'F-ANA at 2 3 5 6 7 9 10; value = 79.7 a.u.
Modification = 2'F-ANA at 1 3 6 8 9 11 12 14; value = 101 a.u.
Modification = 2'F-ANA at 1 2 3 8 11 12 13 15; value = 377 a.u.
Modification = 2'F-ANA at 1 2 3 4 6 8 9 10 13 14; value = 59.1 a.u.
Modification = 2'F-ANA at 3 5 6 7 9 10 12 13 14 15; value = 47.5 a.u.
Modification = 2'F-ANA at 3 7 9 10 13; value = 577 a.u.
Modification = 2'F-ANA at 1 3 4 6 7 8 9 11 12 13 14; value = 77.8 a.u.
Modification = 2'F-ANA at 4 6 7 9 11; value = 201 a.u.
Modification = 2'F-ANA at 1 2 3 4 9 11 12; value = 264 a.u.
Modification = 2'F-ANA at 1 2 7 10 11 12 14; value = 48.2 a.u.
Modification = 2'F-ANA at 3 5 7 8 10 13 14; value = 52.8 a.u.

Sample 4
Target: RNA binding protein fox-1 homolog 2, RRM domain, GST-SBP tag (RBFOX2, Homo sapiens, UniProt O43251-10, residues 100-194)
Technique: RNA Bind-n-Seq
Molecule type: RNA
Sample: in vitro
Tested at: 365 nM
Notes: natural RNA segment, single round, ends assumed
Baseline: no-protein control
Reading: higher = stronger binding
Measurement: RBNS enrichment (R)
Residues (chain): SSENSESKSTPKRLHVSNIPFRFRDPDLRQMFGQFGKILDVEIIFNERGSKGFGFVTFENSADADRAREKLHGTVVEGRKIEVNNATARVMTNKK
Strand = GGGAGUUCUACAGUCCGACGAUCUCAGUUUGCUUUAGCCAUGACUGCCUGAGAAGUCUUAACCUCUGUGCCUCUCUGUAUCCUAUGGAAAGCAGCCCCAUGCUUUCUGCUCCCCUCUGCACUCUCUCACAGGGUGGAAUUCUCGGGUGCCAA; value = 0.713
Strand = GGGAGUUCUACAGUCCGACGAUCUGGUUCUUAUGGCAUCUAAAUUACUGAAUAAAUUAUUAAUCCAUUAAUCAGUGAAUCAAAUUAUGAUUACAAUUAUCAAAUGAAUGCUCAGCAUUAAUUGAAAACUGUUUUGGAAUUCUCGGGUGCCAA; value = 0.365
Strand = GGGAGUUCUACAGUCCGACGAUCAUCCCCGCGUCUGCCUCAGCGGCAGGCCAGUGAGGCGUUUUCCUAGCCUGGAGAUGGGAAAAUAUGCUUGGCAGAGACAGGAAUGCUGUGUGCUUGUUCCAAAUGAGCAGUGGAAUUCUCGGGUGCCAA; value = 0.343
Strand = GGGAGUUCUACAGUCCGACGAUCGUAGCCUGUAACCACUUUUAAAUGGCUUGAAAUUAGGAAACUUGUACAUUUAAUGUACACUUUGCGGUAGAUUAAGGAAUAUACUGCAUAUUUCUUUUUUUAAACUCGGGUGGAAUUCUCGGGUGCCAA; value = 0.369
Strand = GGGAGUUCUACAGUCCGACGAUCUGUUGUUGCAGAUCAGUAAUUGUGCCUAAAAGAGACAGAAGUGAAAAAGAGACAAGCUCUGAGGGCAAAACCCAUACAAAUUUGGAGCAAAUAAAAGCCCAGGUCUGAGAUGGAAUUCUCGGGUGCCAA; value = 0.516
Strand = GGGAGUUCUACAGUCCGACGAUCACUUGUUUUCCCGAUGUGUCCAGCCAGCUCCGCAGCAGCUUUUCAAAAUGCACUAUGCCUGAUUGCUGAUCGUGUUUUAACUUUUUCUUUUCCUGUUUUUAUUUUGGUAUUGGAAUUCUCGGGUGCCAA; value = 1.84
Strand = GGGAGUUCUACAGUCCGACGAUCCGUUUAGACGUUUAGAGUCCUCUUGGAAAAUAGGGCCGUGCGGGAACGGUUAUGAUUGCCAGCGUUUUGGAUGGCAUUAAACUGGAGUUCAGGGUUGAACAUGUCCUGCUUGGAAUUCUCGGGUGCCAA; value = 0.243
Strand = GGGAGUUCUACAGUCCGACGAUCCACCCAAGGCCUUCUCCUGCCUCCUGUCCACUGCCAGCGUCCUCAUUUGUCAUCGGUCAUUAGCCUCCCUCUGUGCUCCCUGGCACUCUUAAUAUAGAUUGAACCAGAAAUGGAAUUCUCGGGUGCCAA; value = 0.895
Strand = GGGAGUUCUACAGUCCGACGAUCGUCUGAGGAGUGUGAACCGUUGGGGUCACUUUAGGCCCAGAGUAACUCUCCCAGAAGAAAACUUGUUUGCCUUCAACCUUGUUUUCCAGUUCUGCAGCGUCAUGGAGGAUUGGAAUUCUCGGGUGCCAA; value = 0.408
Strand = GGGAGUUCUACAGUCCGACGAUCCAGGAUGCUAGAUUAUUGGCUGGGAGGUGGGCAAGUGGCAGCCCAGCUGAAGCAAGAGGCUGAUUGACUGGCUGCUCACUCAGGCAGGUGGCCUGCCCUGGCAUCCUGUAUGGAAUUCUCGGGUGCCAA; value = 1.42
Strand = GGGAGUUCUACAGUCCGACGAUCUGUUGUCCACUGAUUAAUCAGCCUAUGUGCCUGACACUGGUCUUGCAGUACAACUGGAAGCCAAAACAAGGUGGAAGAUGUCCUGAAUUAAGAUGUUUUCACCACAUUGUUGGAAUUCUCGGGUGCCAA; value = 0.227
Strand = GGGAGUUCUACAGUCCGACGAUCGAGGUGACUGACCACCUAGGGCCCCUGAGAGGCAAAGGGAACCUGCAAAGGGCCUGUCCCCGGGCAGAAGAUGAAGCCCCUACCCGUGGACUGUGUGGUUCCAUCUCUGGUGGAAUUCUCGGGUGCCAA; value = 0.661

For quick reference, copied from above (sample 1):
Strand = GCCGGGGA; value = 0.0397
Strand = GGCTACCA; value = 0.118
Strand = CCACGCAG; value = 0.0462
Strand = AAACCCCG; value = 0.0199
Strand = GATCCCCC; value = -0.19
Strand = CTGGGAGA; value = -0.0418
Strand = CAGGTGTA; value = -0.118
Strand = CGAACGTC; value = -0.066
